# Assay results collected from several papers.
# Each numbered part is a random draw from the data of one study; scales do not carry over between parts.
# Sequence of UniProt Q13873 (whole entry, unmodified, looked up): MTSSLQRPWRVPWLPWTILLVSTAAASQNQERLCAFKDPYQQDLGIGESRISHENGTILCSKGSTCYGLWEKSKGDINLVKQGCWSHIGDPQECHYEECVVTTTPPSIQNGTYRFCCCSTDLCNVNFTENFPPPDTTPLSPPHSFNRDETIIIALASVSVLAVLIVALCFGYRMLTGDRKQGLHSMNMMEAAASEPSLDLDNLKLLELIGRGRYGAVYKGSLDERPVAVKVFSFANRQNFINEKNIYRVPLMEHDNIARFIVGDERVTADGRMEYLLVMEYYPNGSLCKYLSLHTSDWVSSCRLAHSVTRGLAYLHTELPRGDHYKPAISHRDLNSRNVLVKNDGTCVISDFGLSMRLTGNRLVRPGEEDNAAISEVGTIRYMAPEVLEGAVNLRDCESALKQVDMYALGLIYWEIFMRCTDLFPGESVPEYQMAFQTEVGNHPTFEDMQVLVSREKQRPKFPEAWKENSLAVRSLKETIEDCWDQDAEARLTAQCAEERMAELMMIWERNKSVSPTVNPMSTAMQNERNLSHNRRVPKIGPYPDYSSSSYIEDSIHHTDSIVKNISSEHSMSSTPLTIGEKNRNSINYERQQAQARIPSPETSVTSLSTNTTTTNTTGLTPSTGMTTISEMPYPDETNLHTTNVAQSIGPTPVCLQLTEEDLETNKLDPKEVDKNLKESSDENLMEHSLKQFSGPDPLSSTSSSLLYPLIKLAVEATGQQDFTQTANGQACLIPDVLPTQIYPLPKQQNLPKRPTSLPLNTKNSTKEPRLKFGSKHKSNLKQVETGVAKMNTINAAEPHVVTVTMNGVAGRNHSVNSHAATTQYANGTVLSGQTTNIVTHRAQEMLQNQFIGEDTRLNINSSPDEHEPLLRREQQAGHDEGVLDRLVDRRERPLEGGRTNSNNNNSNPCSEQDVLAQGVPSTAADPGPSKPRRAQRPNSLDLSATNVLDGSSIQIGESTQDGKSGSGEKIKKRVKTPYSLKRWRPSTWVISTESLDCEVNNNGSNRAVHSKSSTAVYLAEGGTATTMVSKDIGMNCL

# Set 1
# Target: Interferon regulatory factor 5, full length, phosphomimetic (IRF5, Homo sapiens, UniProt Q13568-2, residues 1-514, K96S/S451D/S453D/S456D/S462D)
# Technique: protein-binding microarray
# Molecule type: double-stranded DNA, one strand shown
# Medium: in vitro
# Tested at: 250 nM
# Setting: 60-bp whole probe
# Added: salmon DNA 0.4 mg/ml
# Reference: random background probes
# Direction: higher = stronger binding
# Constant ends, left off below: GCCTAGCAC … GTCTTGATTCGCTTGACGCTGCTG
Strand,log fluorescence [z-score]
ACCATTTTGGTTTTCTCTATGTGCTAG,1.62
TTAGGTTTCCTTCACCTTTAGTGCTAG,1.01
TTAGGTATCGACTGTCGGTTAGTGCTA,3.39
TCAGATATAAATGTAACACTGTGCTAG,0.732
GACGGTATCGATACTGGGGACGTGCTA,7.42
TCATCTCTACATGTGTTACTGTGCTAG,0.207
TTAGGTATCTGACTGGGTTAGTGCTAG,-0.188
TTAGATTCTAGTTTCGATTAGTGCTAG,9.7

# Set 2
# Target: Centromere-binding protein 1, full length, N-terminal tag (CBF1, Saccharomyces cerevisiae, UniProt P17106, residues 1-351)
# Sequence of UniProt P17106 (whole entry, looked up): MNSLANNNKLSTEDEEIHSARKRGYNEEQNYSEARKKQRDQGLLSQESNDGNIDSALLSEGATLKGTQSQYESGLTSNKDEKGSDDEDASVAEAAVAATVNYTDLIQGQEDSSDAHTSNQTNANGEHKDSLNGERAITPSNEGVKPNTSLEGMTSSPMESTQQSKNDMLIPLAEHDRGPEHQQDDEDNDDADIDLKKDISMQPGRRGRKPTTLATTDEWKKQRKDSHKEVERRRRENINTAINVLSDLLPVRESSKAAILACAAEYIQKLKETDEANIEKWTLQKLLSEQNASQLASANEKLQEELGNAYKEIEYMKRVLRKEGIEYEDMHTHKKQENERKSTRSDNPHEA
# Technique: protein-binding microarray
# Molecule type: double-stranded DNA, one strand shown
# Medium: in vitro
# Tested at: 0.8 µM
# Setting: whole 60-bp probe, no competitor
# Direction: higher = stronger binding
# Constant ends, left off below: … GTCTTGATTCGCTTGACGCTGCTG
Strand,fluorescence intensity [a.u.]
GAATTTCGTCCGTAGCACGTAAAAAAGAAAAATTAG,507
GAATCTATGATCCGTCACCTATTTTTATTCTTCTAG,517
CCTAACTACTATAACCACGACTAATAGCTTCGTACA,518
CTAGATTTGTTGGATTGCGTGTTTACGATCCATTTC,501
GAAAAAAACGCACTTAAGGTGACGTAGATGCGTTAG,502
GAAAAGACGACGTTTTTCGTGATAATAAGAAGTTAG,518
CTATGGAGACCACATAATCACACGTGATAAATATTC,13000
GAAAACCATGGGTGTCACCCTACTGCCGAGCCTTAG,469

# Further values, each from its own experiment
# ADRB1: Beta-1 adrenergic receptor (ADRB1, Homo sapiens, UniProt P08588)
# Sequence of UniProt P08588 (whole entry, looked up): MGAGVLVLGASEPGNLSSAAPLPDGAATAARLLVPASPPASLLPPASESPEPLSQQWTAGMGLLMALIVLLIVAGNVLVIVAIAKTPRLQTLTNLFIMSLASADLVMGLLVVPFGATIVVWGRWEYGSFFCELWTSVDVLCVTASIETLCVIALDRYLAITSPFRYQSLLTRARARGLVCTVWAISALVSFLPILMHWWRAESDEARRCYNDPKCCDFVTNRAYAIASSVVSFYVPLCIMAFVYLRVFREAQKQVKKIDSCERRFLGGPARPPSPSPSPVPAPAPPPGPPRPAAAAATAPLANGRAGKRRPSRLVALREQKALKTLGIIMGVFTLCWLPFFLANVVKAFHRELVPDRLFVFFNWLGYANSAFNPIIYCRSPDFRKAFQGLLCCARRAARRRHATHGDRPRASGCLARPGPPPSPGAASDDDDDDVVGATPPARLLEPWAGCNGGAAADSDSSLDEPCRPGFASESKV
Structure (SMILES),tested on,test,system,conditions,how to read,quantity,value
Cc1cccc(CN2CCN(C(c3ccccc3)c3ccc(Cl)cc3)CC2)c1.Cl.Cl (stereo not drawn),Sarcocystis neurona,parasite growth,,"10 µM, first screen",reference: untreated,log2 fold change,-0.19
CCCCCCCCNCC(O)COc1ccc(SC(C)C)cc1 (stereo not drawn),ADRB1,antagonist,,,,IC50,≥ 100 µM
NC1(c2ccc(-c3nc4ccn5c(=O)[nH]nc5c4cc3-c3ccccc3)cc2)CCC1,"BMPR2 (Homo sapiens, UniProt Q13873, R491Q)","kinase-HSP90-CDC37 interaction, LUMIER",human cells,,,EC50,> 10 µM
Cc1ccn(-c2ccc(NCC(O)C3CCCCC3)nn2)n1 (stereo not drawn),ADRB1,antagonist,,,,IC50,≥ 100 µM
C[C@H]1C[C@H]2[C@@H]3CCC4=CC(=O)C=C[C@]4(C)[C@@]3(Cl)[C@@H](O)C[C@]2(C)[C@@]1(O)C(=O)CO,Sarcocystis neurona,parasite growth,,"10 µM, first screen",reference: untreated,log2 fold change,-0.11

# For quick reference, copied from above (set 2):
Strand,fluorescence intensity [a.u.]
GAAAAAAACGCACTTAAGGTGACGTAGATGCGTTAG,502
GAATCTATGATCCGTCACCTATTTTTATTCTTCTAG,517
